Assay results collected from several papers.
Protocols differ between the studies behind these lines. Converted amounts (≈) assume the structure as drawn.
Organism: Acinetobacter baumannii

SMILES	assay	test system	setting	scale	endpoint	result
CC(C)C[C@H](NC(=O)[C@H](Cc1ccc(O)cc1)NC(=O)[C@@H]1CCCN1C(=O)[C@H](CCCNC(=N)N)NC(=O)[C@@H]1CCCN1C(=O)[C@H](CCCCN)NC(=O)[C@H](CC(=O)O)NC(=O)[C@@H]1CCCN1C(=O)[C@H](CCCNC(=N)N)NC(=O)C1(N)CCCCC1)C(=O)N1CCC[C@H]1C(=O)N[C@@H](CCCNC(=N)N)C(=O)N1CCC[C@H]1C(=O)N[C@@H](CCCNC(=N)N)C(=O)N1CCC[C@H]1C(=O)N1CCC[C@H]1C(=O)N[C@@H](CCCNC(=N)N)C(=O)N1CCC[C@H]1C(=O)N[C@H](C(=O)N[C@@H](CCCNC(=N)N)C(=O)N[C@@H](CSc1c(F)c(F)c(SC[C@H](NC(=O)[C@H](CCCNC(=N)N)NC(=O)[C@@H](NC(=O)[C@@H]2CCCN2C(=O)[C@H](CCCNC(=N)N)NC(=O)[C@@H]2CCCN2C(=O)[C@@H]2CCCN2C(=O)[C@H](CCCNC(=N)N)NC(=O)[C@@H]2CCCN2C(=O)[C@H](CCCNC(=N)N)NC(=O)[C@@H]2CCCN2C(=O)[C@H](CC(C)C)NC(=O)[C@H](Cc2ccc(O)cc2)NC(=O)[C@@H]2CCCN2C(=O)[C@H](CCCNC(=N)N)NC(=O)[C@@H]2CCCN2C(=O)[C@H](CCCCN)NC(=O)[C@H](CC(=O)O)NC(=O)[C@@H]2CCCN2C(=O)[C@H](CCCNC(=N)N)NC(=O)C2(N)CCCCC2)C(C)C)C(=O)NN)c(F)c1F)C(=O)NN)C(C)C	time-kill		4 × MIC, 60 min		reduction in viable count	2.38 log CFU/mL
Oc1ccc(C(F)(F)F)cc1-c1nc2c(Cl)cc(Cl)cc2[nH]1	colistin potentiator	AB 1G2, colistin-resistant	5 µM		colistin MIC	0.25 µg/mL
CCCCCCCCCCCCCC(=O)N[C@H](CCN)C(=O)N[C@@H]1C(=O)N[C@@H](CCN)C(=O)N[C@@H](CC(C)C)C(=O)N[C@@H](CCN)C(=O)N[C@H](Cc2ccccc2)C(=O)N[C@@H](CC(C)C)C(=O)N[C@@H](CCN)C(=O)N[C@H](CCN)C(=O)N[C@@H](C(C)C)C(=O)N[C@@H](CC(=O)O)C(=O)O[C@@H]1C		ATCC BAA-1605, carbapenem-resistant, neutropenic mice, thigh infection	subcutaneous, 20 mg/kg once daily, 24 h	reference: vehicle	reduction in bacterial burden	2.4 log10 CFU
CCn1c(-c2ccc(-c3ccc(F)cc3)cc2)c(-c2ccc(-c3ccc(F)cc3)cc2)n(CC)c1=[Se+][Au-][P+](CC)(CC)CC.[Cl-]		carbapenem-resistant	10, 20, 40 µM, 2 h	reference: untreated	malondialdehyde content	increased
CC(C)C[C@H](NC(=O)[C@H](Cc1ccc(O)cc1)NC(=O)[C@@H]1CCCN1C(=O)[C@H](CCCNC(=N)N)NC(=O)[C@@H]1CCCN1C(=O)[C@H](CCCCN)NC(=O)[C@H](CC(=O)O)NC(=O)[C@@H]1CCCN1C(=O)[C@H](CCCNC(=N)N)NC(=O)C1(N)CCCCC1)C(=O)N1CCC[C@H]1C(=O)N[C@@H](CCCNC(=N)N)C(=O)N1CCC[C@H]1C(=O)N[C@@H](CCCNC(=N)N)C(=O)N1CCC[C@H]1C(=O)N1CCC[C@H]1C(=O)N[C@@H](CCCNC(=N)N)C(=O)N1CCC[C@H]1C(=O)N[C@H](C(=O)N[C@@H](CCCNC(=N)N)C(=O)N[C@@H](CSc1c(F)c(F)c(-c2c(F)c(F)c(SC[C@H](NC(=O)[C@H](CCCNC(=N)N)NC(=O)[C@@H](NC(=O)[C@@H]3CCCN3C(=O)[C@H](CCCNC(=N)N)NC(=O)[C@@H]3CCCN3C(=O)[C@@H]3CCCN3C(=O)[C@H](CCCNC(=N)N)NC(=O)[C@@H]3CCCN3C(=O)[C@H](CCCNC(=N)N)NC(=O)[C@@H]3CCCN3C(=O)[C@H](CC(C)C)NC(=O)[C@H](Cc3ccc(O)cc3)NC(=O)[C@@H]3CCCN3C(=O)[C@H](CCCNC(=N)N)NC(=O)[C@@H]3CCCN3C(=O)[C@H](CCCCN)NC(=O)[C@H](CC(=O)O)NC(=O)[C@@H]3CCCN3C(=O)[C@H](CCCNC(=N)N)NC(=O)C3(N)CCCCC3)C(C)C)C(=O)NN)c(F)c2F)c(F)c1F)C(=O)NN)C(C)C	inner membrane permeabilization, PI/SYTO flow cytometry		concentration not given, 60 min, 37 °C		PI-positive bacteria	> 80%
CCn1c(-c2ccc(OC)cc2)c(-c2ccc(OC)cc2)n(CC)c1=[Se+][Au-][P+](CC)(CC)CC.[Cl-]	item: TrxB	carbapenem-resistant	concentration not given, 2 h		mRNA level	decreased
O=c1c(O)ccc(Br)cc1O		multidrug-resistant Ab4			MIC80	19.8 µM (≈ 4.3 µg/mL)
Oc1cc(C(F)(F)F)ccc1-c1nc2c(C(F)(F)F)cc(C(F)(F)F)cc2[nH]1	colistin potentiator	AB 1E4, colistin-resistant	5 µM		MIC of colistin	0.5 µg/mL
CC(C)C[C@@H]1NC(=O)[C@@H](Cc2ccccc2)NC(=O)[C@H](CCN)NC(=O)[C@@H](NC(=O)[C@H](CN)NC(=O)[C@@H](NC(=O)CC(CN)Cc2ccccc2)[C@@H](C)O)CCNC(=O)[C@H]([C@@H](C)O)NC(=O)[C@H](CCN)NC(=O)[C@H](CCN)NC1=O (some centres unmarked)	broth microdilution	ATCC 19003, cation-adjusted Mueller-Hinton broth			MIC	2 µg/mL (≈ 1.78 µM)
C[C@H]1COc2c(N3CCN(C)CC3)c(F)cc3c(=O)c(C(=O)N[C@@H](CCCNC(=N)N)C(=O)N[C@@H](Cc4ccc(-c5ccccc5)cc4)C(=O)N[C@@H](CCCNC(=N)N)C(=O)N[C@@H](Cc4ccc(-c5ccccc5)cc4)C(=O)N[C@@H](CCCNC(=N)N)C(N)=O)cn1c23		ATCC 1799		reference: IC50 MDCK cells over MIC	selectivity index	35.2
CC[C@H](C)[C@H](NC(=O)[C@H](CCCCN)NC(=O)[C@@H](NC(=O)[C@H](CS)NC(=O)[C@H](CCCNC(=N)N)NC(=O)[C@H](CCCNC(=N)N)NC(=O)[C@H](CC(N)=O)NC(=O)[C@H](CCCNC(=N)N)NC(=O)[C@H](CS)NC(=O)[C@@H](NC(=O)[C@H](CO)NC(=O)[C@@H](NC(=O)[C@H](CS)NC(=O)[C@H](CCCCN)NC(=O)[C@@H](N)CCCNC(=N)N)[C@@H](C)CC)C(C)C)[C@@H](C)CC)C(=O)N[C@@H](CS)C(=O)N[C@@H](CCCNC(=N)N)C(=O)O		AB5075, RPMI with human serum	median, 40% human serum		MBC	16 µg/mL (≈ 7.59 µM)

Some of these lines once more:
SMILES	assay	test system	setting	scale	endpoint	result
O=c1c(O)ccc(Br)cc1O		multidrug-resistant Ab4			MIC80	19.8 µM (≈ 4.3 µg/mL)
